Measured values pooled from the literature.
Numbered parts are unrelated; each lists some results of a single study.

Study 1 — method: protein binding microarray; molecule type: double-stranded DNA, one strand shown; medium: in vitro; concentration: not given; relative to: not given; reading: higher = stronger binding
Target: Histone acetyltransferase KAT6A, winged helix 1, GST fusion (KAT6A, Homo sapiens, UniProt Q92794, residues 1-85)
Setting: 8-mer, flanks averaged, mean of 2 arrays, mostly near background
Construct (chain): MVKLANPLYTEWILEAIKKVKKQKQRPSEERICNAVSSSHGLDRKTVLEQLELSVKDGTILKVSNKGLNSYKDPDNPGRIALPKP
Sequence	E-score
AAGACCTG	-0.199
AGTTGAGG	-0.219
ATCTGATG	-0.116
CAACGACA	-0.113
TGCTTAAA	-0.178
CACTACCG	0.199
CCTCTCCG	0.11
CCTGTAGC	-0.0683
GGTAGATA	-0.0747
AGTCTCCG	0.127
ACATGACT	-0.146
ACCGACAC	0.0206
CGATTCTA	-0.0416
ACTACAAA	-0.152
ATGGTGGC	-0.0439
CACTCGCG	0.304
GCGAATCA	0.065
ACTCCGTG	0.156
ACGATGTG	-0.15
ACCTCAAT	-0.265
TCTCTACA	-0.29

Study 2 — method: RNA Bind-n-Seq; molecule type: RNA; medium: in vitro; concentration: 365 nM; relative to: no-protein control; reading: higher = stronger binding
Target: RNA binding protein fox-1 homolog 2, RRM domain, GST-SBP tag (RBFOX2, Homo sapiens, UniProt O43251-10, residues 100-194)
Setting: natural RNA segment, single round, ends assumed
Constant ends, left off below: GGGAGUUCUACAGUCCGACGAUC … UGGAAUUCUCGGGUGCCAA
Sequence	RBNS enrichment (R)
GUCAAGGUUUAUUUUCACAUGAGUCCAGCUUGCAGCAAGUAAUCUUCAAAUAUUCCAGUAAGUUUUGAAAUAAUGAAUGCAUUGAAAAUAGCAUUGUUGGAAUUUAUUCC	1.04
ACCUACUAAGUAGCAAGAAUGCCUCAGCAAUCCCCAAGCCUUCCAGUGCCUCUGGGGGCUUCCUGAUGGAAAACUACACAAACUGAGUUUUUUAAAUGUUAACUCCACUU	0.508
CUUUGCACAAUGUCUUUGGUUGCAAGUCAUAAGCCUGAGGCAAAUAAAAUUCCAGUAAUUUCCAAGAAUGUGGUGUUGGUACUUUCCUAAUAAACCGAUAACGUACCUUG	5.99
UGGUGUGAAAUGAUCUAUGGCCUGUUUCUUACACAGGAAGCCCCCUGAACCUCCUGUACAUGUGUUCAUGUUCCCAGCCAGCUCUGAGACCCAGGAACCAAAUAUUCCAU	0.361
UAUUGAACCCACCCACUCAGAUGCUAAGUCAACCCUGACCUCUGCCCCAUCCACACCAUUCUCCAUUCGAGAGACUACCCCUGUUUCAGAGCCAGUCCCCACCUAGUCCC	0.505
GCUUGGUCAGAGUAGCUAAGCCCUGGUCUUAGGCCUGAGCCUGGAGUCUGCCCCCAUUUCCUUUUCCUAUAAUCCUGCCUUCCAGGGUUCCCCCCUCCCUGAAAUUUGUC	0.649
GUGAGGUCUGCCUCACACCACCCACCUGCACUGCUCUCGCCUAACUGUGGACGCCGGGCACUGUUGGAAACGAAGUUUUGUAAUUUCUGCCUGAUUCACCCUUAUUGGCA	0.536
UGUGCCCCUGGUGCCAUCUGGCCUGGCUGGAGCCAGGAACAAGAGGUCACCCCACCCUAGAAUCCGCAUGGUUUCCCUGUGAUUGCACUCCACUGCCACCGUGGUGCCUG	1.04

Study 3 — method: protein-binding microarray; molecule type: double-stranded DNA, one strand shown; medium: in vitro; concentration: 250 nM; setting: 60-bp whole probe; added: salmon DNA 0.4 mg/ml; relative to: random background probes; reading: higher = stronger binding; constant ends, left off below: GCCTAGCAC … GTCTTGATTCGCTTGACGCTGCTG
Target: Interferon regulatory factor 7, full length, phosphomimetic (IRF7, Homo sapiens, UniProt Q92985, residues 1-503, S101K/S471D/S472D/S475D/S476D/S477D/S483D/S484D/S487D)
Target sequence (chain): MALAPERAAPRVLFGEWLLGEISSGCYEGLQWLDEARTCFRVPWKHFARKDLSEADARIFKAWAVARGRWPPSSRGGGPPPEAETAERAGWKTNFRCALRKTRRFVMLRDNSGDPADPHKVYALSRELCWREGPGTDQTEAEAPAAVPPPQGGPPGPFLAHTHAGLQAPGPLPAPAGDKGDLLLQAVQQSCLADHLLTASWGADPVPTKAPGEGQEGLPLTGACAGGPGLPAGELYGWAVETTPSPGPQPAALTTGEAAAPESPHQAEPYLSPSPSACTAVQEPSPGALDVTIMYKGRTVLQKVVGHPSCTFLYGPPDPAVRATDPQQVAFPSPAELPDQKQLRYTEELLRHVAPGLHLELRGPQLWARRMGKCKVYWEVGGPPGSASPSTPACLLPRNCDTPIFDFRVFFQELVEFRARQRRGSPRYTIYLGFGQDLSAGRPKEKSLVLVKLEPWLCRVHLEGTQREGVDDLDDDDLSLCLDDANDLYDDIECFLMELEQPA
Sequence	log fluorescence [z-score]
CTGGTCTCCGGTGTTTCCTAGTGCTAG	0.661
TCAGTTTCCAAATTGTCACTGTGCTAG	3.62
GACGGTATCCTCTTCCTGACGTGCTAG	0.162
TTAGAGCTGGGGTTTCGATTAGTGCTA	4.44
AGAAACTTGTGTTTGTCCCTGTGCTAG	-0.144
GATGGTCTCCTTTTCCTGACGTGCTAG	1.41
TTAGATTGCAGTATCGATTAGTGCTAG	0.642
CCTCCTCCCTGTTTCCATCTGTGCTAG	0.951
TTTTCATTGTTTTTCATCATGTGCTAG	1.87
TTAGGACCGGGTTTCGGTTAGTGCTAG	8.49
TTCAATTCCTGAAATCTCTTTGTGCTA	0.427

Study 4 — method: competition protein-binding microarray; molecule type: double-stranded DNA, one strand shown; medium: in vitro; concentration: 2 µM; added: Pho4 competitor, 0.05 µM; reading: higher = stronger binding; constant ends, left off below: … GTCTTGATTCGCTTGACGCTGCTG
Target: Centromere-binding protein 1, full length, His-tagged (CBF1, Saccharomyces cerevisiae, UniProt P17106, residues 1-351)
Sequence of UniProt P17106 (whole entry, looked up): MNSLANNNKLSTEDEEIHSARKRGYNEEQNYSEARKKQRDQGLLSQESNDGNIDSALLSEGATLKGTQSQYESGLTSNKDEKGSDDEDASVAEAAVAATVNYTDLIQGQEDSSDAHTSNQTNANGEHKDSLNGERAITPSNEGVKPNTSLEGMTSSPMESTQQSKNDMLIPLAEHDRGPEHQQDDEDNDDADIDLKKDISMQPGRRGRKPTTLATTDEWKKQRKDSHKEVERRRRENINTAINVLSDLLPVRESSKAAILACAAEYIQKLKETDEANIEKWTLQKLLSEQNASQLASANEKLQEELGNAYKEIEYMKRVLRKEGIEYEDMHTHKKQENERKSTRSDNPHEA
Setting: whole 60-bp probe, lowest competitor level
Sequence	fluorescence intensity [a.u.]
GATTATTGGCTAAGTACCGTGATGGTGGTAAGATTG	116
TATTGACAGCATTCGATCGTGCAATGGGAAATAACG	75.8
GGCGAGATAAAGCAGAACGTGAAGCTCAGTTAAGTA	88.2
CGGGGTTAAGTTTGTGTAGTGGGTGGCTTGCAGCAG	64.6
CATACCCAACCTTGTCACTCAACTTAAGATATTTGT	69.1
TGCGCAACAACTTGACAAGTGGGTGTATGTCTAGAA	82
GCGCTCTTGTTCATGTTCGTGATGGTGTCCAGCCAT	86.6
ATGGCCGCTGGTCCTCACGTGTATATATGGAGGGAG	1170
GTCTTGTCTCATTGAATGGTGGGTGTCCCCACTTCA	76.3
TTGCGGGTATCGTTGCCCGTGTCCTTGTCAATGAAG	71.3
TGTTGCCACATAATTGAGGCATGTTAGCAGAGCATT	62.2
TTTGTTTTCATCTGGGTTGTGACAGTTGATGATAAC	83.9
GGATCTGCCTATGCCTTCGTGGGTAATCTCTTACTC	52.3
ATTTGACCATTATTCCACGTGTTGAGTTCTCAGAAT	747
CGGGGTTAAGTTTGTCAAGTGGGTGGCTTGCAGCAG	83.2
TGGTAATTCAACCGTCACGGGTGTAGAAAATGGTGA	473
AAACACTTCCACCTACACGTGAGAGCCAAAGCCATA	1030
ACACAGCCGTACCTACACGTGCCAGTTATCTTGATA	1120
TATCAGGATCAACAGCACATGCAAACACCCCAATTC	111

Some of these lines once more (study 4):
Sequence	fluorescence intensity [a.u.]
ATTTGACCATTATTCCACGTGTTGAGTTCTCAGAAT	747
CGGGGTTAAGTTTGTCAAGTGGGTGGCTTGCAGCAG	83.2
TGGTAATTCAACCGTCACGGGTGTAGAAAATGGTGA	473
AAACACTTCCACCTACACGTGAGAGCCAAAGCCATA	1030
ACACAGCCGTACCTACACGTGCCAGTTATCTTGATA	1120
